Assay results from different studies.
A part holds a random share of what one study measured.

Set 1 — method: aptamer microarray, sandwich; form: DNA with 2'F-ANA; medium: in vitro; concentration: 200 nM; together with: Cy3 exosite-II aptamer, 400 nM; direction: higher = stronger binding; endpoint: mean fluorescence intensity; oligonucleotide: GGTTGGTGTGGTTGG
Target: Prothrombin, mature alpha-thrombin (F2, Homo sapiens, UniProt P00734)
Setting: whole 15-mer aptamer, many near background
Modification = 2'F-ANA at 1 2 4 6 9 11 14 15; result = 62.3 a.u.
Modification = 2'F-ANA at 1 3 4 5 6 7 9 10 11 12 13 14 15; result = 46.4 a.u.
Modification = 2'F-ANA at 4 6 7 9 10 11 12; result = 101 a.u.
Modification = 2'F-ANA at 1 2 3 5 7 12 14; result = 49.4 a.u.
Modification = 2'F-ANA at 2 5 9 10 13 15; result = 44.5 a.u.

Set 2 — method: protein-binding microarray; form: double-stranded DNA, one strand shown; medium: in vitro; concentration: 250 nM; setting: 60-bp whole probe; together with: salmon DNA 0.4 mg/ml; reference: random background probes; direction: higher = stronger binding; endpoint: log fluorescence; constant ends, left off below: GCCTAGCAC … GTCTTGATTCGCTTGACGCTGCTG
Target: Interferon regulatory factor 5, full length, phosphomimetic (IRF5, Homo sapiens, UniProt Q13568-2, residues 1-514, K96S/S451D/S453D/S456D/S462D)
Oligonucleotide = GACGGACTGGTTTTCCTGACGTGCTAG; result = -0.388 z-score
Oligonucleotide = GACGGTTTCGTCTATCGGGACGTGCTA; result = 4.91 z-score
Oligonucleotide = GGCGGTCTCGGTCTCGGGACGTGCTAG; result = 0.189 z-score
Oligonucleotide = TCATGATTGGTTGAACAACTGTGCTAG; result = 0.214 z-score
Oligonucleotide = TTGGGTTTCCTACTGCTTTAGTGCTAG; result = 0.269 z-score
Oligonucleotide = ACTAATTTTCAATTCCTGAAGTGCTAG; result = 1.6 z-score
Oligonucleotide = GACGGTTTCGGTCTCGGGAGGTGCTAG; result = 9.63 z-score

Further values, each from its own experiment
POU: POU, POU domain (Salpingoeca helianthica)
T1: POU, POU domain (Salpingoeca helianthica); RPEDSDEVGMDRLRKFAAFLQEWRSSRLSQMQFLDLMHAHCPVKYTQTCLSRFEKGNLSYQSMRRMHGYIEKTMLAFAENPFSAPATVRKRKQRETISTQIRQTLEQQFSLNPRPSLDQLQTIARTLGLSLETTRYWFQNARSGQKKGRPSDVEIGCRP
Molecule = GAGTCGTCTCGTCAGCACATCTTGATCCGTAGAGCACTCAGGTC; target = T1, POU, POU domain (Salpingoeca helianthica); assay = Spec-seq; system = double-stranded DNA, one strand shown, in vitro; setting = not given, whole probe, mean of replicates; how to read = reference: not given, lower = stronger binding; endpoint = relative binding energy; result = 1.22 ln ratio
Molecule = PhoQ, residues 284 288 289 292 302 303 ASVMEA; target = PhoP, residues 12 14 15 18 19 NHFRA (Escherichia coli, UniProt P23836); assay = Sort-seq, measured: YFP reporter; system = E. coli; setting = PhoQ-PhoP variant library, together with: 10 µM Mg2+; how to read = reference: high Mg2+ state, higher = stronger signaling; endpoint = fold induction; result = 3.87
Molecule = GAGTCGTCTCGTCAGCACATGCGCGTCCGTAGAGCACTCAGGTC; target = T1, POU, POU domain (Salpingoeca helianthica); assay = Spec-seq; system = double-stranded DNA, one strand shown, in vitro; setting = not given, whole probe, mean of replicates; how to read = reference: not given, lower = stronger binding; endpoint = relative binding energy; result = 1.44 ln ratio

Excerpt of the above (set 1):
Modification = 2'F-ANA at 1 3 4 5 6 7 9 10 11 12 13 14 15; result = 46.4 a.u.
